Assay results collected from several papers.
Compare with care: the assays were run in different laboratories.
Organism: Escherichia coli

Compound	assay	test system	setting	MIC
CC(C)Oc1c(NC(=O)c2ccc(NC(=O)C(CC(N)=O)NC(=O)c3cc(F)c(N=Nc4c(F)cccc4F)c(F)c3)cc2)ccc(C(=O)NN=Cc2ccc(C(=O)O)cc2)c1O (stereo not shown)	–	BW25113	after 1 h irradiation at 365 nm	> 6.4 µg/mL
CC1(C)C(NC(=O)C(=NOC2(C(=O)O)CC2)c2csc(N)n2)C(=O)N1OS(=O)(=O)O (stereo not shown)	agar dilution	CDC 1001728, NDM-1	–	0.25 µg/mL
CC(C)C[C@@H]1NC(=O)[C@H](CCCCN)NC(=O)C(N)CCC=CCCCC(C(N)=O)NC(=O)[C@H](CCCCN)NC(=O)[C@H](CC(C)C)NC(=O)[C@H](CCCCN)NC(=O)C2CCCC=CCCC(NC(=O)[C@H](CCCCN)NC1=O)C(=O)N[C@@H](CCCCN)C(=O)N1CCC[C@@H]1C(=O)NCC(=O)N[C@@H](CCCCN)C(=O)N2 (stereo partly shown)	broth microdilution	ATCC 25922, Mueller-Hinton broth	18 h, 37 °C	64 µM
O=C(O)c1cn(C2CC2)c2cc(N3CCNCC3)c(F)cc2c1=O	broth dilution	drug-resistant	–	> 200 µM
CC[C@H](C)[C@H](NC(=O)[C@@H](CCCNC(=N)N)NC(=O)[C@H](CCCNC(=N)N)NC(=O)[C@H](CC(C)C)NC(=O)[C@H](Cc1c[nH]c2ccccc12)NC(=O)[C@H](CCCNC(=N)N)NC(=O)[C@@H]1CCCN1C(=O)[C@H](CCCNC(=N)N)NC(=O)[C@@H]1CCCN1C(=O)[C@H](CC(C)C)NC(=O)[C@H](Cc1ccc(O)cc1)NC(=O)[C@@H]1CCCN1C(=O)[C@@H]1CCCN1C(=O)[C@H](CCCCN)NC(=O)[C@H](CC(=O)O)NC(=O)[C@@H](N)C(C)C)C(=O)N[C@@H](Cc1ccc(O)cc1)C(=O)N[C@@H](CC(N)=O)C(=O)N[C@H](CCCNC(=N)N)C(N)=O	broth microdilution	BW25113	18 h, 37 °C, 25% MHB2	32 µg/mL
CC1(C)S[C@@H]2[C@H](NC(=O)[C@H](NC(=O)C3=C(O)C(c4ccccc4F)NC3=O)c3ccccc3)C(=O)N2[C@H]1C(=O)O (stereo partly shown)	broth microdilution	isolate IU, CTX-M-14, TEM-1	together with: clavulanic acid 6 µg/mL	> 200 µg/mL
CC[C@H](C)[C@H](NC(=O)[C@@H](CCCNC(=N)N)NC(=O)[C@H](CCCNC(=N)N)NC(=O)[C@@H]1CCCN1C(=O)[C@@H]1CCCN1C(=O)[C@H](Cc1c[nH]c2ccccc12)NC(=O)[C@@H]1CCCN1C(=O)[C@H](CCCNC(=N)N)NC(=O)[C@@H]1CCCN1C(=O)[C@H](CC(C)C)NC(=O)[C@H](Cc1ccc(O)cc1)NC(=O)[C@@H]1CCCN1C(=O)[C@@H]1CCCN1C(=O)[C@H](CCCCN)NC(=O)[C@H](CC(=O)O)NC(=O)[C@@H](N)C(C)C)C(=O)N[C@@H](Cc1ccc(O)cc1)C(=O)N[C@@H](CC(N)=O)C(=O)N[C@H](CCCNC(=N)N)C(N)=O	broth microdilution	ATCC 25922	18 h, 37 °C, 25% MHB2	32 µg/mL
CO[C@@H](C(N)=O)[C@H](NC(=O)c1ccc(NC(=O)[C@@H](N)Cc2ccc(O)cc2)cc1)C(=O)Nc1ccc(C(=O)Nc2ccc(C(=O)Nc3ccc(C(=O)O)cc3)c(O)c2OC(C)C)cc1	–	glutathione S-transferase-like clone	16 h, 37 °C	1 µg/mL
CC(=O)N[C@@H](CC(C)C)C(=O)N[C@H]1CSSC[C@@H](C(=O)N2CCC[C@H]2C(N)=O)NC(=O)[C@H](CCCCN)NC(=O)[C@H](C(C)C)NC(=O)[C@H](CCCCN)NC(=O)CNC(=O)[C@H](CC(C)C)NC(=O)[C@H](Cc2ccccc2)NC(=O)[C@H](CCCCN)NC(=O)[C@H](CC(C)C)NC(=O)[C@H](CCC(=O)O)NC(=O)[C@H](Cc2ccccc2)NC(=O)[C@H](CCCNC(=N)N)NC(=O)[C@H](CCCCN)NC(=O)[C@H](CC(C)C)NC(=O)[C@H](CC(=O)O)NC(=O)[C@@H]2CCCN2C(=O)[C@H](CCCCN)NC(=O)[C@H](C(C)C)NC(=O)[C@H](CCCCN)NC(=O)[C@H](CCCCN)NC(=O)[C@H](CCCCN)NC1=O	broth dilution	laboratory strain	24 h	> 40 µM
OB(O)c1cnn(-c2cc(Cl)ncn2)c1	bacterial growth	CTX-M-14 ESBL clinical isolate	without cefotaxime	2050 µg/mL
CC[C@H](C)[C@H](NC(=O)[C@@H](CCCNC(=N)N)NC(=O)[C@H](CCCNC(=N)N)NC(=O)[C@@H]1CCCN1C(=O)[C@@H]1CCCN1C(=O)[C@H](Cc1c[nH]cn1)NC(=O)[C@@H]1CCCN1C(=O)[C@H](CCCNC(=N)N)NC(=O)[C@@H]1CCCN1C(=O)[C@H](CC(C)C)NC(=O)[C@H](Cc1ccc(O)cc1)NC(=O)[C@@H]1CCCN1C(=O)[C@@H]1CCCN1C(=O)[C@H](CCCCN)NC(=O)[C@H](CC(=O)O)NC(=O)[C@@H](N)C(C)C)C(=O)N[C@@H](Cc1ccc(O)cc1)C(=O)N[C@@H](CC(N)=O)C(=O)N[C@H](CCCNC(=N)N)C(N)=O	broth microdilution	BW25113	18 h, 37 °C, 25% MHB2	8 µg/mL
CC(C)C[C@@H](NC(=O)[C@H](NC(=O)[C@@H](CCCCN)NC(=O)[C@@H](CCCCN)NC(=O)[C@@H](CC(C)C)NC(=O)[C@@H](Cc1c[nH]c2ccccc12)NC(=O)[C@@H](CCCCN)NC(=O)[C@@H](Cc1c[nH]c2ccccc12)NC(=O)[C@@H](CC(C)C)NC(=O)[C@@H](CCCCN)NC(=O)[C@@H](CCCCN)NC(=O)[C@H](N)C(C)C)C(C)C)C(N)=O	–	–	24 h, 37 °C, Mueller-Hinton broth, CaCl2 2.5 mM	32 µM
CC[C@H](C)[C@H](NC(=O)[C@@H](CCCNC(=N)N)NC(=O)[C@H](CCCNC(=N)N)NC(=O)[C@@H]1CCCN1C(=O)[C@@H]1CCCN1C(=O)[C@H](CCCNC(=N)N)NC(=O)[C@@H]1CCCN1C(=O)[C@H](CCCNC(=N)N)NC(=O)[C@@H]1CCCN1C(=O)[C@H](CC(C)C)NC(=O)[C@H](Cc1cc(I)c(O)c(I)c1)NC(=O)[C@@H]1CCCN1C(=O)[C@@H]1CCCN1C(=O)[C@H](CCCCN)NC(=O)[C@H](CC(=O)O)NC(=O)[C@@H](N)C(C)C)C(=O)N[C@@H](Cc1ccc(O)cc1)C(=O)N[C@@H](CC(N)=O)C(=O)N[C@H](CCCNC(=N)N)C(N)=O	broth microdilution	BW25113	18 h, 37 °C, 25% MHB2	64 µg/mL
CC[C@H](C)[C@H](NC(=O)[C@H](CCCNC(=N)N)NC(=O)[C@H](CC(=O)O)NC(=O)[C@H](CCCNC(=N)N)NC(=O)[C@H](CC(C)C)NC(=O)[C@H](CC(N)=O)NC(=O)[C@H](CCCNC(=N)N)NC(=O)[C@@H](N)Cc1ccccc1)C(=O)N[C@@H](CCCCN)C(=O)N[C@@H](CC(N)=O)C(=O)N[C@@H](CCCCN)C(=O)N[C@@H](Cc1ccccc1)C(=O)N[C@@H](CCC(=O)O)C(=O)N[C@@H](CC(N)=O)C(=O)N[C@@H](C)C(=O)N[C@@H](CC(C)C)C(=O)N[C@@H](CCCCN)C(=O)N[C@@H](CC(N)=O)C(=O)N[C@H](C(=O)N[C@H](C(=O)N[C@@H](CC(N)=O)C(=O)N[C@@H](CCCCN)C(=O)N[C@@H](CC(C)C)C(=O)N[C@@H](Cc1ccccc1)C(=O)N1CCC[C@H]1C(=O)O)[C@@H](C)CC)C(C)C	broth microdilution	ATCC 25922	–	10.4 µM
CC[C@H](C)[C@H](NC(=O)[C@@H](NC(=O)[C@H](CCCCN)NC(=O)[C@H](CCC(N)=O)NC(=O)[C@@H](NC(=O)[C@H](Cc1c[nH]c2ccccc12)NC(=O)[C@H](CCCCN)NC(=O)[C@H](CCCCN)NC(=O)[C@H](CC(C)C)NC(=O)[C@H](CCCNC(=N)N)NC(=O)[C@H](Cc1ccccc1)NC(=O)[C@@H](N)C(C)C)[C@@H](C)CC)C(C)C)C(N)=O	–	–	24 h, 37 °C, Mueller-Hinton broth, NH4Cl 6 µM	64 µM
CCCCCCCC(=O)N[C@@H](CCN)C(=O)N[C@H](C(=O)N[C@@H](CCN)C(=O)N[C@H]1CCNC(=O)[C@H]([C@@H](C)O)NC(=O)[C@H](CCN)NC(=O)[C@H](CCN)NC(=O)[C@H](CC(C)C)NC(=O)[C@@H](Cc2ccc(Br)cc2)NC(=O)[C@H](CCN)NC1=O)[C@@H](C)O	–	MG1655	–	0.25 µg/mL
Cc1ccnc(-c2cc(C(=O)NCCCCCC(=O)N[C@@H](CCCNC(=N)N)C(=O)N[C@@H](Cc3c[nH]c4ccccc34)C(=O)N[C@@H](CCCNC(=N)N)C(=O)N[C@@H](Cc3c[nH]c4ccccc34)C(=O)N[C@@H](CCCNC(=N)N)C(=O)N[C@@H](Cc3c[nH]c4ccccc34)C(N)=O)ccn2)c1	–	ATCC BAA-196, resistant	18 h, 37 °C, LED light 1.57 mW for 10 min	16 µM
CC(C)[C@H](NC(=O)[C@H](Cc1ccc(O)cc1)NC(=O)[C@H](CS)NC(=O)[C@@H](NC(=O)[C@H](CCCNC(=N)N)NC(=O)[C@H](Cc1ccccc1)NC(=O)[C@H](CS)NC(=O)[C@H](Cc1c[nH]c2ccccc12)NC(=O)[C@@H](N)CCCNC(=N)N)C(C)C)C(=O)NCC(=O)N[C@@H](Cc1ccccc1)C(=O)N[C@@H](CS)C(=O)N[C@@H](Cc1ccc(O)cc1)C(=O)N[C@@H](Cc1c[nH]c2ccccc12)C(=O)N[C@@H](CCCCN)C(=O)N[C@@H](CS)C(=O)N[C@@H](CCCNC(=N)N)C(=O)O	broth microdilution	K88	–	0.64 log10 µg/mL
CC[C@H](C)[C@H](NC(=O)[C@H](CCCCN)NC(=O)[C@H](CCCCN)NC(=O)[C@H](Cc1ccccc1)NC(=O)[C@H](Cc1ccccc1)NC(=O)[C@H](CCCCN)NC(=O)[C@H](CCCCN)NC(=O)[C@H](Cc1ccccc1)NC(=O)[C@H](CCCNC(=N)N)NC(=O)[C@@H](N)CCCCN)C(=O)N[C@@H](CCCCN)C(=O)N[C@@H](CCCCN)C(=O)N[C@@H](CO)C(=O)N[C@H](C(=O)N[C@@H](CCCCN)C(=O)N[C@@H](CCCCN)C(=O)N[C@@H](CCCNC(=N)N)C(=O)N[C@H](C(=O)N[C@@H](CCCCN)C(=O)N[C@@H](CCCCN)C(=O)N[C@@H](CC(C)C)C(=O)N[C@@H](Cc1ccccc1)C(=O)N[C@@H](CCCCN)C(=O)N[C@@H](CCCCN)C(=O)N1CCC[C@H]1C(=O)N[C@@H](CCCNC(=N)N)C(=O)N[C@H](C(=O)N[C@H](C(=O)N1CCC[C@H]1C(=O)N[C@H](C(=O)N[C@@H](CO)C(=O)N[C@H](C(=O)N1CCC[C@H]1C(=O)N[C@@H](Cc1ccccc1)C(=O)O)[C@@H](C)CC)[C@@H](C)CC)[C@@H](C)CC)C(C)C)C(C)C)C(C)C	broth microdilution	E24 clinical isolate	20 h	4 µg/mL

Some of these lines once more:
Compound	assay	test system	setting	MIC
CC(=O)N[C@@H](CC(C)C)C(=O)N[C@H]1CSSC[C@@H](C(=O)N2CCC[C@H]2C(N)=O)NC(=O)[C@H](CCCCN)NC(=O)[C@H](C(C)C)NC(=O)[C@H](CCCCN)NC(=O)CNC(=O)[C@H](CC(C)C)NC(=O)[C@H](Cc2ccccc2)NC(=O)[C@H](CCCCN)NC(=O)[C@H](CC(C)C)NC(=O)[C@H](CCC(=O)O)NC(=O)[C@H](Cc2ccccc2)NC(=O)[C@H](CCCNC(=N)N)NC(=O)[C@H](CCCCN)NC(=O)[C@H](CC(C)C)NC(=O)[C@H](CC(=O)O)NC(=O)[C@@H]2CCCN2C(=O)[C@H](CCCCN)NC(=O)[C@H](C(C)C)NC(=O)[C@H](CCCCN)NC(=O)[C@H](CCCCN)NC(=O)[C@H](CCCCN)NC1=O	broth dilution	laboratory strain	24 h	> 40 µM
Cc1ccnc(-c2cc(C(=O)NCCCCCC(=O)N[C@@H](CCCNC(=N)N)C(=O)N[C@@H](Cc3c[nH]c4ccccc34)C(=O)N[C@@H](CCCNC(=N)N)C(=O)N[C@@H](Cc3c[nH]c4ccccc34)C(=O)N[C@@H](CCCNC(=N)N)C(=O)N[C@@H](Cc3c[nH]c4ccccc34)C(N)=O)ccn2)c1	–	ATCC BAA-196, resistant	18 h, 37 °C, LED light 1.57 mW for 10 min	16 µM
CCCCCCCC(=O)N[C@@H](CCN)C(=O)N[C@H](C(=O)N[C@@H](CCN)C(=O)N[C@H]1CCNC(=O)[C@H]([C@@H](C)O)NC(=O)[C@H](CCN)NC(=O)[C@H](CCN)NC(=O)[C@H](CC(C)C)NC(=O)[C@@H](Cc2ccc(Br)cc2)NC(=O)[C@H](CCN)NC1=O)[C@@H](C)O	–	MG1655	–	0.25 µg/mL
